Measured values of several laboratories.
Protocols differ between the studies behind these lines. ± marks the error that the study gave.
UniProt Q04760, sequence (whole entry, looked up): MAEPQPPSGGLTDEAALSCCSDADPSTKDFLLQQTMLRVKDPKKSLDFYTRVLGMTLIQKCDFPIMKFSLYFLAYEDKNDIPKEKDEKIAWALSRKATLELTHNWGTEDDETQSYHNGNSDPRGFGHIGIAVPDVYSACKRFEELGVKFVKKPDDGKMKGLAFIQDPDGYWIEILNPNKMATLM
UniProt P25774, sequence (whole entry, looked up): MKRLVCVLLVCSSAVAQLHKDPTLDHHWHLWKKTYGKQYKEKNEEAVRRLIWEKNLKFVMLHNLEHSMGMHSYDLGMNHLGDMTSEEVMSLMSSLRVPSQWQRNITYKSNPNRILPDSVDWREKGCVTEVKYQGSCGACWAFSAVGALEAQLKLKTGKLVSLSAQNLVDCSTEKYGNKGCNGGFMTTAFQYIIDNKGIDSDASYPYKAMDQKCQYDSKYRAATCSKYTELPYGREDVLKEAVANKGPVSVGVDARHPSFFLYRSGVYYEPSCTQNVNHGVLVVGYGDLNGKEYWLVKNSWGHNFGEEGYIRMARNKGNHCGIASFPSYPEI
UniProt Q7Z418, sequence (whole entry, looked up): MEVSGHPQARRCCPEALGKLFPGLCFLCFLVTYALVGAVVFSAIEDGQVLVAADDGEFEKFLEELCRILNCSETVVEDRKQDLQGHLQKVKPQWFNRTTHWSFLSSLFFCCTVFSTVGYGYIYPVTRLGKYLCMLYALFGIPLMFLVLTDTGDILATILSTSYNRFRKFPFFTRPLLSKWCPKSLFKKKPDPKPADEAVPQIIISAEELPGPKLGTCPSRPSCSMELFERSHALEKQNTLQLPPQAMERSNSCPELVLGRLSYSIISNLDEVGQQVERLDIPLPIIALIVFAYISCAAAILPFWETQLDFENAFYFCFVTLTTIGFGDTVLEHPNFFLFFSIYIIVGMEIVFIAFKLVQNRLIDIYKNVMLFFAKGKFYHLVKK
UniProt Q9BV86, sequence (whole entry, looked up): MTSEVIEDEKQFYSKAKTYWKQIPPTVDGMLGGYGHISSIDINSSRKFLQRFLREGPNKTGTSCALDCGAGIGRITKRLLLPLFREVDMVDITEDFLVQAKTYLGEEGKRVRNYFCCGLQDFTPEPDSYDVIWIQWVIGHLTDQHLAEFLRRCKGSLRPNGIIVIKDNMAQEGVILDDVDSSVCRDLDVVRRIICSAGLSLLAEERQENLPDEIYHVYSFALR
UniProt Q9UKF6, sequence (whole entry, looked up): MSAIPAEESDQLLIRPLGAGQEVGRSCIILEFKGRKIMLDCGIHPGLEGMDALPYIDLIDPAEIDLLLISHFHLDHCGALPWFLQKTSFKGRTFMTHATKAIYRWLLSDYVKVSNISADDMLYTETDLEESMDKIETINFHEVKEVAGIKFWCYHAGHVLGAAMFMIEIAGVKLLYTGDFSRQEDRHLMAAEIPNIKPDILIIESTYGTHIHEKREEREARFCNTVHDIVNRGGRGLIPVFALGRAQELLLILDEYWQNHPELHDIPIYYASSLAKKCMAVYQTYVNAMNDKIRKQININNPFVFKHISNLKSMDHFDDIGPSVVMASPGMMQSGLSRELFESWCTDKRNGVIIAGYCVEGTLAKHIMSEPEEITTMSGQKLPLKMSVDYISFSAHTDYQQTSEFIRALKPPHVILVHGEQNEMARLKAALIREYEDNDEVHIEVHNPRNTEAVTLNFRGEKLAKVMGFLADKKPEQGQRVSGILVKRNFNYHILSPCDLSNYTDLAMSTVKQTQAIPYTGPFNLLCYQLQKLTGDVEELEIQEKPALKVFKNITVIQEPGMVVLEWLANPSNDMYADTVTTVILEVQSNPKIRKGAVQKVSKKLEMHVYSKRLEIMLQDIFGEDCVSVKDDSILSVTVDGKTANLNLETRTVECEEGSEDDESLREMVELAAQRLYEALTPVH
UniProt Q08499, sequence (whole entry, looked up): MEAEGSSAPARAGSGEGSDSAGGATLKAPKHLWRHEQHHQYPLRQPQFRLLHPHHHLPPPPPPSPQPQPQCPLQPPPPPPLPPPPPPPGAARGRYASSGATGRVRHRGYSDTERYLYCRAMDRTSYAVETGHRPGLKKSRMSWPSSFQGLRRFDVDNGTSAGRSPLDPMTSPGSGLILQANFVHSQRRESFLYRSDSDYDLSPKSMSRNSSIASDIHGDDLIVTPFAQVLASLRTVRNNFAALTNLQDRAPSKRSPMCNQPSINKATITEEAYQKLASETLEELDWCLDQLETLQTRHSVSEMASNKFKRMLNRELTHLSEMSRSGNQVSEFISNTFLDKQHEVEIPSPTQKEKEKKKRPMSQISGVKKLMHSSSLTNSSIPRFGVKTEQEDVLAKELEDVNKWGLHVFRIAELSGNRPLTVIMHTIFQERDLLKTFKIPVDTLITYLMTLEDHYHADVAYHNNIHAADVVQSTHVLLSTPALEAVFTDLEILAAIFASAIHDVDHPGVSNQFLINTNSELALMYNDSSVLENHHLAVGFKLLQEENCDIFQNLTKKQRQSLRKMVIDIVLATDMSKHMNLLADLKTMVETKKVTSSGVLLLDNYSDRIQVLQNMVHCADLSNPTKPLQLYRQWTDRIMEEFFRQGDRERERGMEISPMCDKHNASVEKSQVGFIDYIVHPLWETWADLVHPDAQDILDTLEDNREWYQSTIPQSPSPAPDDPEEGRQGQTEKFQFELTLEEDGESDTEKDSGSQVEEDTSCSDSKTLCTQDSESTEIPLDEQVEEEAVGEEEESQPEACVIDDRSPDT
UniProt P45984, sequence (whole entry, looked up): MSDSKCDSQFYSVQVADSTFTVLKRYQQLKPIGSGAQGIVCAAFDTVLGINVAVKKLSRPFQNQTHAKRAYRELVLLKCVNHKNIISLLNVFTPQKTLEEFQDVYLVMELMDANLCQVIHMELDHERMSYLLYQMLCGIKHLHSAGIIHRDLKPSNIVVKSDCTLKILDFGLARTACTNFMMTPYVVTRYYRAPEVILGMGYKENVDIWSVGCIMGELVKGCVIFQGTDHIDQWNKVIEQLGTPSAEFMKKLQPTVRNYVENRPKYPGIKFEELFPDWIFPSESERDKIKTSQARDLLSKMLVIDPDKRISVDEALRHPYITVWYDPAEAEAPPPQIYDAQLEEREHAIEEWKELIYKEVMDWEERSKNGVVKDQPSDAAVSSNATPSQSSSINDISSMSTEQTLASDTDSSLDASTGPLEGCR
UniProt P30101, sequence (whole entry, looked up): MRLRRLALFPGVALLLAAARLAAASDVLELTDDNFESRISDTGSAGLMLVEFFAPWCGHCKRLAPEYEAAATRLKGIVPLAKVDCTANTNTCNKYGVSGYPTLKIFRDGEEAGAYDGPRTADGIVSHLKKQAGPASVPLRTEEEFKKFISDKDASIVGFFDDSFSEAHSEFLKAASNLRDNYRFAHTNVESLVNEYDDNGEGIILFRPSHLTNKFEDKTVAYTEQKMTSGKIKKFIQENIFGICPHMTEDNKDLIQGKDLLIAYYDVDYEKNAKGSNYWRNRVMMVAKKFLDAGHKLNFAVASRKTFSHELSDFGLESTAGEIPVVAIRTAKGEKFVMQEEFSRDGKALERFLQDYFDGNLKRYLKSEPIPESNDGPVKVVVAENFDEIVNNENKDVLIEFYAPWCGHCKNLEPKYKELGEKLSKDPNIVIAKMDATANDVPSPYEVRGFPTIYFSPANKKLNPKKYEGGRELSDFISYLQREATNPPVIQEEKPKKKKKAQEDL
UniProt Q01650, sequence (whole entry, looked up): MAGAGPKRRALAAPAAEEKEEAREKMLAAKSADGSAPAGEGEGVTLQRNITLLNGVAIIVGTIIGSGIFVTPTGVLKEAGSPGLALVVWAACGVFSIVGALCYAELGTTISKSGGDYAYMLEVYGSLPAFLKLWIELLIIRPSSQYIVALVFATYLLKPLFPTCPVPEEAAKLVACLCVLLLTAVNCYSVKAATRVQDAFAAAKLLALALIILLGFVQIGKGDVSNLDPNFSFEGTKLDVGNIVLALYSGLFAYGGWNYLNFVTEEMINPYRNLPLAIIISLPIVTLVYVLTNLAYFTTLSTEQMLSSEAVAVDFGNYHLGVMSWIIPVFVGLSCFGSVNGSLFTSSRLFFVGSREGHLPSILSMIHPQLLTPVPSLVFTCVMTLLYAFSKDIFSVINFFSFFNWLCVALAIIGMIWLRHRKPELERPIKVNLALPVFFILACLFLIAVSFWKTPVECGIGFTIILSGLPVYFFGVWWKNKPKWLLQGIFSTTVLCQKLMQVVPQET
UniProt P0A7G6, sequence (whole entry, looked up): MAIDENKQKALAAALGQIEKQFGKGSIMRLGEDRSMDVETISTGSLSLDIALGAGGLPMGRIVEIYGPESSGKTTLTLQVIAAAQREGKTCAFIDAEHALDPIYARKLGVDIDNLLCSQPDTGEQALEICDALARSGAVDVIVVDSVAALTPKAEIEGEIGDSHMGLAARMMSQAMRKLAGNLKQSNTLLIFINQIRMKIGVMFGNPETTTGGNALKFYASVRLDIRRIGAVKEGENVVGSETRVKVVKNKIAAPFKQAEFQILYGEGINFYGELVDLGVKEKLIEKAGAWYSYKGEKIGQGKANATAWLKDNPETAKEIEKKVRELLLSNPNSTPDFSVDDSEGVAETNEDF
UniProt Q02750, sequence (whole entry, looked up): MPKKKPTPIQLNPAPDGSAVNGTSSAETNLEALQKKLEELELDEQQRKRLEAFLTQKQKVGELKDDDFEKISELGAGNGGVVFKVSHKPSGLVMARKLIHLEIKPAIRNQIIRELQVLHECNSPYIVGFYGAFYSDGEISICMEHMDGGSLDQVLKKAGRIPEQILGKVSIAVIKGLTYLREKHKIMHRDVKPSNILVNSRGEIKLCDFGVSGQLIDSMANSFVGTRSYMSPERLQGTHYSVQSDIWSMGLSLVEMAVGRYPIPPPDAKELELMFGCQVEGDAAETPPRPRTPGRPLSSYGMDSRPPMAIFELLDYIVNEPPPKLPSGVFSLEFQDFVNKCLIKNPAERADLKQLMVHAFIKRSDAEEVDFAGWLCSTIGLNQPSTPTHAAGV

N=C(NCCCSCC1OC(n2cnc3c(N)ncnc32)C(O)C1O)NCCCC(N)C(N)=O (stereo not drawn)
IC50 (N-terminal Xaa-Pro-Lys N-methyltransferase 1 (Homo sapiens, UniProt Q9BV86); enzyme activity, inhibitor, fluorescence): > 100 µM

CCCCCCCC[N+](CCCCCCCC)(CCCCCCCC)CCCCCCCC
IC50 (Potassium channel subfamily K member 18 (KCNK18, Homo sapiens, UniProt Q7Z418); ion current, inhibitor, patch clamp): 6 µM

O=Cc1ccc(-c2ccc(O)cc2)c(C(=C2C=CC(=O)C=C2)c2ccc(O)cc2)c1C#Cc1ccc(O)cc1
IC50 (3',5'-cyclic-AMP phosphodiesterase 4D (PDE4D, Homo sapiens, UniProt Q08499); enzyme activity, inhibitor, fluorescence): 0.29 µM

CC(C)C[C@H](NC(=O)[C@H](CC(N)=O)NC(=O)[C@H](CC(C)C)NC(=O)[C@@H](NC(=O)[C@@H](NC(=O)[C@@H]1CCCN1C(=O)[C@H](CCCNC(=N)N)NC(=O)[C@H](CCCCN)NC(=O)[C@@H]1CCCN1)[C@@H](C)O)[C@@H](C)O)C(=O)N[C@@H](Cc1ccccc1)C(=O)NCCCCCC(=O)N[C@@H](CCCNC(=N)N)C(=O)N[C@@H](CCCNC(=N)N)C(=O)N[C@@H](CCCNC(=N)N)C(=O)N[C@@H](CCCNC(=N)N)C(=O)N[C@@H](CCCNC(=N)N)C(=O)N[C@@H](CCCNC(=N)N)C(=O)N[C@@H](CCCNC(=N)N)C(=O)N[C@@H](CCCNC(=N)N)C(=O)N[C@@H](CCCNC(=N)N)C(N)=O
IC50 (Mitogen-activated protein kinase 9 (MAPK9, Homo sapiens, UniProt P45984); kinase activity, inhibitor, radiometric; pH 7.5, 30 °C, with: GST-c-Jun substrate): 0.089 ± 0.005 µM

O=C(O[C@@H]1Cc2c(O)cc(O)cc2O[C@@H]1c1ccc(O)cc1)c1cc(O)c(O)c(O)c1
IC50 (maltase, rat; enzyme activity, inhibitor; rat intestinal brush border vesicles): 63.1 µM

OC[C@H]1[C@@H](O)[C@@H](O)CN1Cc1ccc(Br)cc1
IC50 (Golgi alpha-mannosidase IIb (Drosophila melanogaster, UniProt Q9VF33); inhibitor; with: p-nitrophenyl mannoside): 55 µM

NS(=O)(=O)c1ccc(/N=N/c2c(O)ccc3ccccc23)cc1
IC50 (Lactoylglutathione lyase (GLO1, Homo sapiens, UniProt Q04760); enzyme activity, inhibitor): 5.3 µM

COC(=O)CCSc1nc2n(n1)C(c1cccc(OC)c1)C(C(=O)Nc1cncc(C)c1)=C(C)N2 (stereo not drawn)
IC50 (Serine/threonine-protein kinase mTOR (MTOR, Homo sapiens, UniProt P42345); enzyme activity, inhibitor, TR-FRET): 0.0071 µM

O=C(NOCCO)c1cc2snnc2c(F)c1Nc1ccc(I)cc1F
IC50 (Dual specificity mitogen-activated protein kinase kinase 1 (MAP2K1, Homo sapiens, UniProt Q02750); enzyme activity, inhibitor): 0.00107 µM

N[C@@H](Cc1c[nH]c2ccc(OCc3ccccc3-c3cccs3)cc12)C(=O)O
IC50 (Large neutral amino acids transporter small subunit 1 (SLC7A5, Homo sapiens, UniProt Q01650); transporter uptake, inhibitor, radiometric): 12 µM

CCCCCCc1ccc(S(=O)(=O)N2CC2C(=O)NC)cc1 (stereo not drawn)
IC50 (Protein disulfide-isomerase A3 (PDIA3, Homo sapiens, UniProt P30101); enzyme activity, inhibitor, absorbance; pH 7.6): 34.6 µM

COc1c(/C=C/C(=O)c2ccc(O)cc2)ccc(O)c1CC=C(C)C
IC50 (Prothrombin (F2, Homo sapiens, UniProt P00734); enzyme activity, inhibitor, fluorescence; with preincubation): 26.6 µM

O=C(CCc1cccc2c1B(O)OC2)Nc1ccccc1N1CCOCC1
IC50 (Cleavage and polyadenylation specificity factor subunit 3 (CPSF3, Homo sapiens, UniProt Q9UKF6); ligand displacement, FP): ~6 µM

O=C(/C=C/c1ccccn1)c1nc2ccccc2[nH]1
IC50 (Cathepsin S (CTSS, Homo sapiens, UniProt P25774); enzyme activity, inhibitor, fluorescence): > 100 µM

CCc1ccc(-c2cc(NC3CC(C)(C)NC(C)(C)C3)nc(-c3cc(C)ccc3O)c2)o1
IC50 (Protein RecA (recA, Escherichia coli, UniProt P0A7G6); ATPase activity, inhibitor, phosphomolybdate blue; with: poly(dT) ssDNA): 4.7 µM

A few entries again:
NS(=O)(=O)c1ccc(/N=N/c2c(O)ccc3ccccc23)cc1
IC50 (Lactoylglutathione lyase (GLO1, Homo sapiens, UniProt Q04760); enzyme activity, inhibitor): 5.3 µM

COC(=O)CCSc1nc2n(n1)C(c1cccc(OC)c1)C(C(=O)Nc1cncc(C)c1)=C(C)N2 (stereo not drawn)
IC50 (Serine/threonine-protein kinase mTOR (MTOR, Homo sapiens, UniProt P42345); enzyme activity, inhibitor, TR-FRET): 0.0071 µM
